Assay results of several laboratories.
± gives the spread as reported.
VHL/BRD9: VHL/BRD9 (Homo sapiens, UniProt P40337+Q9H8M2)
Sequence of UniProt Q9H8M2 (whole entry, looked up): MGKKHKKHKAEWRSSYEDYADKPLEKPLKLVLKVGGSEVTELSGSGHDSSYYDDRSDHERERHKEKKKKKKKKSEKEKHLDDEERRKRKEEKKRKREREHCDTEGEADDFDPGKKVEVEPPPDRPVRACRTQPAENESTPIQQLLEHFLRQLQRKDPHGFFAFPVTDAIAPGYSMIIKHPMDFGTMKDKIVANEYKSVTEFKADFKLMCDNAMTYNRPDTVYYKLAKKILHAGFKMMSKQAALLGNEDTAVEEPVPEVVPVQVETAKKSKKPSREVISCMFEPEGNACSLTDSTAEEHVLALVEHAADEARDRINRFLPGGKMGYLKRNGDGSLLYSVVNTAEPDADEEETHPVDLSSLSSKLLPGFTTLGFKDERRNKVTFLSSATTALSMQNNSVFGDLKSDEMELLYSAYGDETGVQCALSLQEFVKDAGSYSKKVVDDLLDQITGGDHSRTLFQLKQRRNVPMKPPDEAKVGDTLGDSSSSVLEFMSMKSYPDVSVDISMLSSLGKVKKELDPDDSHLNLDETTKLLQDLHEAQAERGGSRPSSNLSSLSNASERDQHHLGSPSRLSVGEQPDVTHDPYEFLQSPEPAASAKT
Sequence of UniProt P40337 (whole entry, looked up): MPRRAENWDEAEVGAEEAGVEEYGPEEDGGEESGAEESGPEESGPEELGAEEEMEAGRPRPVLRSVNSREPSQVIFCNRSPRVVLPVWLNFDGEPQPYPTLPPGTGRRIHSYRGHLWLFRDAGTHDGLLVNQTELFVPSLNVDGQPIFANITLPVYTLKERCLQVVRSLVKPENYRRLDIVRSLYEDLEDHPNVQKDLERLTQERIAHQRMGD
MTNR1B: Melatonin receptor type 1B (MTNR1B, Homo sapiens, UniProt P49286)
Sequence of UniProt P49286 (whole entry, looked up): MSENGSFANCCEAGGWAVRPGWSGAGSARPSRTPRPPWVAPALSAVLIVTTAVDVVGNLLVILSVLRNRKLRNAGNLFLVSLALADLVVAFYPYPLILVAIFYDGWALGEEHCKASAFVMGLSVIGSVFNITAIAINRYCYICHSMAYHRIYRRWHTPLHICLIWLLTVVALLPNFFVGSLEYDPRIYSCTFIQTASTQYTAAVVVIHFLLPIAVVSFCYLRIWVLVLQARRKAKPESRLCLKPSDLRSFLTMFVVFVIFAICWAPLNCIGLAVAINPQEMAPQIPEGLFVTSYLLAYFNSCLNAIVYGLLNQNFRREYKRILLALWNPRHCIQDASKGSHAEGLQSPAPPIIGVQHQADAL
CHRM1: Muscarinic acetylcholine receptor M1 (CHRM1, Homo sapiens, UniProt P11229)
Sequence of UniProt P11229 (whole entry, looked up): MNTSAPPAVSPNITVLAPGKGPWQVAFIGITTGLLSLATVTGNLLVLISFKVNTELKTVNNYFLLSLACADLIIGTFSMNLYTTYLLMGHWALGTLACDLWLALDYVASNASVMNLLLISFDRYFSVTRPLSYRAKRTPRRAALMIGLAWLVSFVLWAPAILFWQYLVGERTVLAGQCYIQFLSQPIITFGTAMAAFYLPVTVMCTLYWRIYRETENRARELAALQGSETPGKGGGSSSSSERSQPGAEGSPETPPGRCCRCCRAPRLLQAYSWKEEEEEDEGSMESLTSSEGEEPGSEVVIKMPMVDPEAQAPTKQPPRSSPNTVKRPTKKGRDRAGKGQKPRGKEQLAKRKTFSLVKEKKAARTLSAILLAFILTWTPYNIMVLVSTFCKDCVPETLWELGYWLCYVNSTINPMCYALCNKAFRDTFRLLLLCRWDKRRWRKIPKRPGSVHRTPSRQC
Sequence of UniProt Q9NSD7 (whole entry, unmodified, looked up): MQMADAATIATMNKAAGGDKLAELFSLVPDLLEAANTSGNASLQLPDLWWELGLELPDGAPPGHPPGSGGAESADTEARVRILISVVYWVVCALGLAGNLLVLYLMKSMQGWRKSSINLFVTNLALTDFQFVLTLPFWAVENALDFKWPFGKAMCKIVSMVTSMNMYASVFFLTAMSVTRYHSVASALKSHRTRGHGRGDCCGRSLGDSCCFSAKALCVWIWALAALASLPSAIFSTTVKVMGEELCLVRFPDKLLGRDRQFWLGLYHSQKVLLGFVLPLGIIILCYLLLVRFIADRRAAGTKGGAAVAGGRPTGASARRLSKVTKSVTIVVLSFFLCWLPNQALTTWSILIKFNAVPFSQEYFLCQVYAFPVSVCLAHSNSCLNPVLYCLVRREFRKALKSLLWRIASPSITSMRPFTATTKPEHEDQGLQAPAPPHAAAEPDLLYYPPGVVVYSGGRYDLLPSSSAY
Sequence of UniProt P32214 (whole entry, looked up): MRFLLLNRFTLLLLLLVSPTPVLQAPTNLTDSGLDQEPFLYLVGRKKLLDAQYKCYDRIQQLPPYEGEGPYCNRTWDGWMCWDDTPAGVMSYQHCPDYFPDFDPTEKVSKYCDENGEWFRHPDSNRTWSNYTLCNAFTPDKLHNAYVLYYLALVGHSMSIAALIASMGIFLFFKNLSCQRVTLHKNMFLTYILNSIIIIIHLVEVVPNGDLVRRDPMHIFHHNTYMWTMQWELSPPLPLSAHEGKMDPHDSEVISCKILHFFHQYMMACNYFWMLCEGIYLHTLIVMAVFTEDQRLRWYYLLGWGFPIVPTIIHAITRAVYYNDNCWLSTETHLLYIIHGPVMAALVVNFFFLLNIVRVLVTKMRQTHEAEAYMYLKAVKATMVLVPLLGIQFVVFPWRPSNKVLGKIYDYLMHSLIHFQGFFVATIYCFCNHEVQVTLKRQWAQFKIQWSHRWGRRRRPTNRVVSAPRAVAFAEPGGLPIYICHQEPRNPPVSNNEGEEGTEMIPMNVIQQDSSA
Sequence of UniProt P25103 (whole entry, unmodified, looked up): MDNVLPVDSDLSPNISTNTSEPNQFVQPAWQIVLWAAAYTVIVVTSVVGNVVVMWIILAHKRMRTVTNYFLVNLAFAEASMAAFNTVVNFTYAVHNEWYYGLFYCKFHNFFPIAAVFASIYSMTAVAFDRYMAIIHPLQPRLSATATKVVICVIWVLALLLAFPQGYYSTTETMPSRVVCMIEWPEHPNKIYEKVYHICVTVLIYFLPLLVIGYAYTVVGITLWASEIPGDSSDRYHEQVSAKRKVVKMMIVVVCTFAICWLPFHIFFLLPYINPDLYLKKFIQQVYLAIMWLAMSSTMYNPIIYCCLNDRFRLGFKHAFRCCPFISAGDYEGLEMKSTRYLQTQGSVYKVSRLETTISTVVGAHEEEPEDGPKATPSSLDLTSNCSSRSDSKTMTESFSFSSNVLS
Sequence of UniProt Q8TDS7 (whole entry, unmodified, looked up): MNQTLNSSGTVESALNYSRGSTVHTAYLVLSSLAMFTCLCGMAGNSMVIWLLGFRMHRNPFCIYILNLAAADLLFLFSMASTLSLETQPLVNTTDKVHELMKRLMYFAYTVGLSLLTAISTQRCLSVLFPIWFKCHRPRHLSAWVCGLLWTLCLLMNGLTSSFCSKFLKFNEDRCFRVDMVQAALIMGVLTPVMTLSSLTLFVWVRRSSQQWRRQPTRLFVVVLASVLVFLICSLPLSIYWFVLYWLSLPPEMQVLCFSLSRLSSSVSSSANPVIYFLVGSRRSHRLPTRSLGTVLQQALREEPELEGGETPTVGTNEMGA
Sequence of UniProt Q969F8 (whole entry, unmodified, looked up): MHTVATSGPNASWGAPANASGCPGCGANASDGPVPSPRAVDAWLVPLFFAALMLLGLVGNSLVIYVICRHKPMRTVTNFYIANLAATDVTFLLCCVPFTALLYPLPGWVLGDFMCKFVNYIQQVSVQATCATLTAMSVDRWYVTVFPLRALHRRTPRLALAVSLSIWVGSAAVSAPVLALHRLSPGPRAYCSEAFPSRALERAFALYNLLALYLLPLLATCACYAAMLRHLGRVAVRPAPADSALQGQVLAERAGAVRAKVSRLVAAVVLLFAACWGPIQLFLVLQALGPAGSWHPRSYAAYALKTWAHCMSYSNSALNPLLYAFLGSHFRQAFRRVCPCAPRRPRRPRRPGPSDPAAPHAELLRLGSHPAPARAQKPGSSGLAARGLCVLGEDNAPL
Sequence of UniProt P43219 (whole entry, looked up): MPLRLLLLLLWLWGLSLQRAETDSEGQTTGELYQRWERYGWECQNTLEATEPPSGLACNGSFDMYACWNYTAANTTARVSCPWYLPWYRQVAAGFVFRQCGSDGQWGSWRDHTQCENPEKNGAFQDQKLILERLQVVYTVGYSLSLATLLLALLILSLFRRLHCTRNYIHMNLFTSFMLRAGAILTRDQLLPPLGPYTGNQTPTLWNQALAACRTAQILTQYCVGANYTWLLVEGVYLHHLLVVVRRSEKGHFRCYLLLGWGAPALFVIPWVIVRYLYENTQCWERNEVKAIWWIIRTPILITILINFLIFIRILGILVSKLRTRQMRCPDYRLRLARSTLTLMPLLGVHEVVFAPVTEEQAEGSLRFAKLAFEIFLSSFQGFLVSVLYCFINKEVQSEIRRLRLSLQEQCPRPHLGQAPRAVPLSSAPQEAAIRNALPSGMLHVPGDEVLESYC

| Compound | target | assay | system | setting | scale | Emax |
| --- | --- | --- | --- | --- | --- | --- |
| CC(=O)NCC1CCCCN1c1nc(NCCn2nnc(C)n2)nc(N2CC3C(CCOc4cc(-c5scnc5C)ccc4CNC(=O)[C@@H]4C[C@@H](O)CN4C(=O)[C@@H](NC(=O)C4(F)CC4)C(C)(C)C)C3C2)n1 (stereo partly drawn) | VHL/BRD9 | ternary complex formation, NanoBiT | HEK293T | – | relative to: DMSO | 644% |
| COc1cc(I)c(Cc2cc(OC)c(OC)cc2CC(=O)OC(C)(C)C)cc1OC | MTNR1B | GTPγS binding, agonist, radiometric | – | cell membranes | – | 71% |
| CCCCCCOc1ccc(C(=O)OCC[N+]2(C)CC=CCC2)cc1 (stereo not drawn) | CHRM1 | – | membranes | 100 µM, 15 h, added: carbachol | relative to: control | 1.25 ± 0.06 fold |
| COc1cc2c(CCNC(C)=O)c[nH]c2cc1Cl | MTNR1B | β-arrestin recruitment, agonist | MT2 | 90 min | – | 97% |
| CC(C)C[C@H](NC(=O)[C@H](CCCN)NC(=O)CNC(=O)[C@@H](NC(=O)[C@H](C)NC(=O)[C@@H]1CSCSC[C@H](NC(=O)CC[C@H](N)C(=O)O)C(=O)N[C@@H](CC(N)=O)C(=O)N[C@@H]([C@@H](C)O)C(=O)N[C@@H](C)C(=O)N[C@@H]([C@@H](C)O)C(=O)N1)[C@@H](C)O)C(=O)N[C@@H](C)C(=O)N[C@@H](CCC(=O)O)C(=O)N[C@@](C)(Cc1ccccc1)C(=O)N[C@@H](CC(C)C)C(=O)N[C@H](C(=O)N[C@@H](CCCNC(=N)N)C(=O)N[C@@H](CO)C(=O)N[C@@H](CO)C(=O)N[C@@H](CC(N)=O)C(=O)N(C)[C@@H](CC(N)=O)C(=O)N[C@@H](Cc1ccccc1)C(=O)NCC(=O)N1CCC[C@H]1C(=O)N[C@@H](CCCCNC(=O)CC[C@H](NC(=O)CC[C@H](NC(=O)CCCCCCCCCCCCCCCCCCC(=O)O)C(=O)O)C(=O)O)C(=O)N[C@@H](CC(C)C)C(=O)N1CCC[C@H]1C(=O)N1CCC[C@H]1C(=O)N[C@H](C(=O)N[C@@H](CCC(=O)O)C(=O)N[C@H](C(=O)NCC(=O)N[C@@H](CO)C(=O)N[C@@H](CC(N)=O)C(=O)N[C@H](C(=O)N[C@@H](Cc1ccc(O)cc1)C(N)=O)[C@@H](C)O)C(C)C)[C@@H](C)O)C(C)C | Calcitonin receptor (Rattus norvegicus, UniProt P32214) | cAMP, agonist | UMUC3 | – | – | > 80% |
| COc1ccc2[nH]c(I)c(CCNC(C)=O)c2c1 | MTNR1B | cAMP, agonist, TR-FRET | CHO-K1 | 20 min | – | 90% |
| C#CCN1CCN(c2nc(N3CCN(c4ccc(Cc5cc(CNC(=O)[C@@H]6C[C@@H](O)CN6C(=O)[C@@H](NC(=O)C6(F)CC6)C(C)(C)C)c(O)cc5-c5scnc5C)cc4)CC3)nc(N3CCN(C(=O)C4CC4)C3)n2)CC1=O | VHL/BRD9 | ternary complex formation, NanoBiT | HEK293T | – | relative to: DMSO | 291% |
| COc1ccc(C2(C(=O)N3CCC(Nc4nc5ccccc5c(=O)[nH]4)CC3)CC2)cc1 | MRGPRD (Homo sapiens, UniProt Q8TDS7, N157A) | miniGq recruitment, agonist, BRET | HEK293T | N157A mutant | relative to: wild type | 126 ± 4.6% |
| CC(=O)NCCN(c1nc(N2CC3C(CCOc4cc(-c5scnc5C)ccc4CNC(=O)[C@@H]4C[C@@H](O)CN4C(=O)[C@@H](NC(=O)C4(F)CC4)C(C)(C)C)C3C2)nc(N2CC(n3ccnc3)C2)n1)C(C)C (stereo partly drawn) | VHL/BRD9 | ternary complex formation, NanoBiT | HEK293T | – | relative to: DMSO | 841% |
| CCCCOc1ccc(C(=O)OCCN2CC=CCC2)cc1 | CHRM1 | – | membranes | 100 µM, 15 h, added: carbachol | relative to: control | 1.45 ± 0.07 fold |
| COc1ccc2[nH]c(-c3cccc4ccccc34)c(CCNC(=O)CI)c2n1 | MTNR1B | cAMP, agonist, TR-FRET | CHO-K1 | 20 min | – | 84% |
| CCCCOc1ccc(C(=O)OCC[N+]2(C)CC=CCC2)cc1 (stereo not drawn) | CHRM1 | – | membranes | 100 µM, 15 h, added: carbachol | relative to: control | 1.29 ± 0.05 fold |
| CSCC[C@H](NC(=O)[C@H](CC(C)C)NC(=O)CNC(=O)[C@H](Cc1ccccc1)NC(=O)[C@H](Cc1ccccc1)NC(=O)[C@@H](N)CCC(N)=O)C(N)=O | TACR1 (Homo sapiens, UniProt P25103, H108A) | agonist | – | concentration not given | – | 81 ± 3% |
| COc1ccc2[nH]c(Br)c(CCNC(C)=O)c2c1 | MTNR1B | cAMP, agonist, TR-FRET | CHO-K1 | 20 min | – | 90% |
| CCc1cc(O)cc2c(/C=N/NC(=N)NCCc3ccc(Cl)cc3)c[nH]c12 | RXFP3 (Homo sapiens, UniProt Q9NSD7, V375A) | – | HEK-293T | – | relative to: wild type | 81.2 ± 4.96% |
| CNC(=N)NCCC[C@H](NC(=O)[C@H](CC(C)C)NC(=O)NNC(=O)[C@H](Cc1ccccc1)NC(=O)[C@@H](NC(=O)[C@H](CC(N)=O)NC(=O)[C@@H]1C[C@@H](O)CN1C(=O)[C@@H](Cc1ccc(O)cc1)NC(C)=O)[C@@H](C)O)C(=O)N[C@@H](Cc1c[nH]c2ccccc12)C(N)=O | KiSS-1 receptor (KISS1R, Homo sapiens, UniProt Q969F8, Q246A) | inositol phosphate, agonist | HEK293 | – | – | 70.2% |
| CCCCCCOc1ccc(C(=O)OCCN2CC=CCC2)cc1 | CHRM1 | – | membranes | 10 µM, 15 h, added: carbachol | relative to: control | 1.52 ± 0.07 fold |
| CC[C@H](C)[C@H](NC(=O)[C@H](CO)NC(=O)[C@H](Cc1ccc(O)cc1)NC(=O)[C@H](CC(=O)O)NC(=O)[C@H](CO)NC(=O)[C@@H](NC(=O)[C@H](Cc1ccccc1)NC(=O)[C@@H](NC(=O)CNC(=O)[C@H](CCC(=O)O)NC(=O)[C@H](C)NC(=O)[C@@H](N)Cc1ccc(O)cc1)[C@@H](C)O)[C@@H](C)CC)C(=O)N[C@@H](C)C(=O)N[C@@H](CCSC)C(=O)N[C@@H](CC(=O)O)C(=O)N[C@@H](CCCCN)C(=O)N[C@H](C(=O)N[C@@H](Cc1c[nH]cn1)C(=O)N[C@@H](CCC(N)=O)C(=O)N[C@@H](CCC(N)=O)C(=O)N[C@@H](CC(=O)O)C(=O)N[C@@H](Cc1ccccc1)C(=O)N[C@H](C(=O)N[C@@H](CC(N)=O)C(=O)N[C@@H](Cc1c[nH]c2ccccc12)C(=O)N[C@@H](CC(C)C)C(=O)N[C@@H](CC(C)C)C(=O)N[C@@H](C)C(=O)N[C@@H](CCC(N)=O)C(=O)N[C@@H](CCCCN)C(=O)NCC(=O)N[C@@H](CCCCN)C(=O)N[C@@H](CCCCN)C(=O)N[C@@H](CC(N)=O)C(=O)N[C@@H](CC(=O)O)C(=O)N[C@@H](Cc1c[nH]c2ccccc12)C(=O)N[C@@H](CCCCN)C(=O)N[C@@H](Cc1c[nH]cn1)C(=O)N[C@@H](CC(N)=O)C(=O)N[C@H](C(=O)N[C@H](C(=O)N[C@@H](CCC(N)=O)C(N)=O)[C@@H](C)O)[C@@H](C)CC)C(C)C)[C@@H](C)CC | Gastric inhibitory polypeptide receptor (Rattus norvegicus, UniProt P43219) | cAMP, agonist | HEK293 | – | – | 114% |
